Experimental data collected from several papers.
Every numbered part comes from another study and shows a few of its results, in no order.
Chain of UniProt Q9Y243 (whole entry, looked up): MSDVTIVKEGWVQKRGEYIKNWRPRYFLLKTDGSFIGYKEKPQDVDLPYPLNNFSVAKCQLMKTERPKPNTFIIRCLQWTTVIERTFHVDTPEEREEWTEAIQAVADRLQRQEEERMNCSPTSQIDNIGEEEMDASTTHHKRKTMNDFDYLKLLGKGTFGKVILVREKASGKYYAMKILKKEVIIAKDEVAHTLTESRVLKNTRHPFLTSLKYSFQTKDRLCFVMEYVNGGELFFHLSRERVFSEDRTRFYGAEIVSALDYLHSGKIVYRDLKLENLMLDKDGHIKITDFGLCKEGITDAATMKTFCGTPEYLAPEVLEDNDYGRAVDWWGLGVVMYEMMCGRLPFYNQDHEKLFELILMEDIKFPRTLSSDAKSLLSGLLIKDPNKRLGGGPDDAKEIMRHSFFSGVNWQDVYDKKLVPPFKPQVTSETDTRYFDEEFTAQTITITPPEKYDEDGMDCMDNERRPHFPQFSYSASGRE
Chain of UniProt P50406 (whole entry, looked up): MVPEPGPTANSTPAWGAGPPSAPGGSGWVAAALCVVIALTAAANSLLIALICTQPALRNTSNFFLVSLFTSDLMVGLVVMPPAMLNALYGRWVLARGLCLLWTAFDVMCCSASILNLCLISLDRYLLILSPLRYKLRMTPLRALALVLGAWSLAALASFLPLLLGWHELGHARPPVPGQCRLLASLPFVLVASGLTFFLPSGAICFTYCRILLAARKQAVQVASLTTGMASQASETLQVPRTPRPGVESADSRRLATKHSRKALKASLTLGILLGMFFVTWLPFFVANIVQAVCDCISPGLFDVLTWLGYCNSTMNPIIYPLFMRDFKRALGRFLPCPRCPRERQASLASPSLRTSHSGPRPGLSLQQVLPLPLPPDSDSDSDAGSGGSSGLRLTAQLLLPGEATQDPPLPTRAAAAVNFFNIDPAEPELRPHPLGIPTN

Series 1
Target: RING finger protein unkempt homolog, zinc fingers 1-6, GST-SBP tag (UNK, Homo sapiens, UniProt Q9C0B0, residues 30-357)
Chain of UniProt Q9C0B0 (30-357, looked up): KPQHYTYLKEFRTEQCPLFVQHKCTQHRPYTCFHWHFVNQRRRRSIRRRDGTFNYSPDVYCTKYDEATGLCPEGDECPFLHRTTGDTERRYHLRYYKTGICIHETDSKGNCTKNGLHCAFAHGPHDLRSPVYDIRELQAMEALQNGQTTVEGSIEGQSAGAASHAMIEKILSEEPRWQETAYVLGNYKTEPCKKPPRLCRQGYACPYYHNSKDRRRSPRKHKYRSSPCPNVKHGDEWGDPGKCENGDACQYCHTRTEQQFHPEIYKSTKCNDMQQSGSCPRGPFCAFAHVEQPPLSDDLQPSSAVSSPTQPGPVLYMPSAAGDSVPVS
Method: RNA Bind-n-Seq
Form: RNA
Matrix: in vitro
Concentration: not given
Setting: RNA with constant flanks, human and mouse sites, ends assumed
Relative to: input RNA pool
Direction: higher = stronger binding
Sequence | bound/input enrichment
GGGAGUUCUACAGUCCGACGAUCGGAUUGACCUAGUCUUGCUCCGACCUCAUAAACAAUCCACUCUGUAUUGUGCCCUGUCAAACUAGUGUGUGUGGUGUUAAUGAUGCUGGGAUUUUAUUUAUUGUAAAGCAAUGAGUCUGGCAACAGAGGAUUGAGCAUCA | 0.515 ratio
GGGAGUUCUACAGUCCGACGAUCCAUAGAGGAGAAGGAAAAAGAUAGCUUUACUGCUGUGGUUAUCACAGGGGUACAACCAGAACACAUACAGUACUUGAAAAAUUAUUUCCACCUUUGGACACGACAGUUAGCGCAUAUUUACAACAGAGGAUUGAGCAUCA | 3.5 ratio
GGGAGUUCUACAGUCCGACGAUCAGUAACUAACCACCAAGAACCUCUUCUGUAACCCAGAGUGAGAAAGCUGUAGGCAUAUUCUAGCAGGUAUCAAUGUCUCUGGCAUCCUUUAGAGCCUUACUCUGGUUAACUGACUCUCAGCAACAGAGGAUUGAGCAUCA | 0.331 ratio
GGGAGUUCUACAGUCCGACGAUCGAGUGGCCCCUGCUAGAUUCUUCCCAGAGAAAACUGUACAAAGAUGUAAUGCUGGAGAAUUAUAGCAAUCUAAGUUCACUGGGUUAUCAGGUUGGCAAACCCCGCCUCAUCUCACACCUACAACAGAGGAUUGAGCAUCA | 0.189 ratio
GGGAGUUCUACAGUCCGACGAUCGCCAAAUACGUCUGGGCAGCCACGGCCGGGGGCGUCUUUCAGAGCAUUACGCCAAUAGAAAUAGAUAUGAUUGUAGGAAAAGACCGGGAAGGUUUCUUUACCAACGGUUUGACUCUUGGCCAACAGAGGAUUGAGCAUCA | 0.743 ratio
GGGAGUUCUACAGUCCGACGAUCUAUGAUGGAGAGGAGUAUGAUGUGGAGGCACAUGAACAAGGACAAGGGGACAUCCCUACAUUUUAUACCUAUGAAGAAGGACUAUCCCAUUUAACAGCGGAAGGGCAAGCCACGUUGGAGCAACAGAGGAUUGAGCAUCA | 0.581 ratio
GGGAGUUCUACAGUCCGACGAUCACGAAAUAUCGUGUCUUGAAGAUUGAUAGAACAGAACCAAAAGAUUUGGUCAUAAUUGAUGACAGGCAUGUCUAUACUCAACAAGAAGUAAGGGAACUUCUUGGCCGCUUGGAUCUUGGACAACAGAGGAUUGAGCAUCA | 0.179 ratio
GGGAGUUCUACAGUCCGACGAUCCCAGCAGAGAAGAAAUGUGGAGCGGAAACCCAGCACGAGGGGCUAGAACUCAGGGUAGAGAAUUUGCAGGCGGUGCAGACAGACUUUAGCUCCGAUCCACUGCAGAAAGUUGUGUGCUUCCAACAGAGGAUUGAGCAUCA | 0.424 ratio

Series 2
Target: Sal-like protein 4, full length isoform A (SALL4, Homo sapiens, UniProt Q9UJQ4, residues 1-1053)
Chain of UniProt Q9UJQ4 (whole entry, looked up): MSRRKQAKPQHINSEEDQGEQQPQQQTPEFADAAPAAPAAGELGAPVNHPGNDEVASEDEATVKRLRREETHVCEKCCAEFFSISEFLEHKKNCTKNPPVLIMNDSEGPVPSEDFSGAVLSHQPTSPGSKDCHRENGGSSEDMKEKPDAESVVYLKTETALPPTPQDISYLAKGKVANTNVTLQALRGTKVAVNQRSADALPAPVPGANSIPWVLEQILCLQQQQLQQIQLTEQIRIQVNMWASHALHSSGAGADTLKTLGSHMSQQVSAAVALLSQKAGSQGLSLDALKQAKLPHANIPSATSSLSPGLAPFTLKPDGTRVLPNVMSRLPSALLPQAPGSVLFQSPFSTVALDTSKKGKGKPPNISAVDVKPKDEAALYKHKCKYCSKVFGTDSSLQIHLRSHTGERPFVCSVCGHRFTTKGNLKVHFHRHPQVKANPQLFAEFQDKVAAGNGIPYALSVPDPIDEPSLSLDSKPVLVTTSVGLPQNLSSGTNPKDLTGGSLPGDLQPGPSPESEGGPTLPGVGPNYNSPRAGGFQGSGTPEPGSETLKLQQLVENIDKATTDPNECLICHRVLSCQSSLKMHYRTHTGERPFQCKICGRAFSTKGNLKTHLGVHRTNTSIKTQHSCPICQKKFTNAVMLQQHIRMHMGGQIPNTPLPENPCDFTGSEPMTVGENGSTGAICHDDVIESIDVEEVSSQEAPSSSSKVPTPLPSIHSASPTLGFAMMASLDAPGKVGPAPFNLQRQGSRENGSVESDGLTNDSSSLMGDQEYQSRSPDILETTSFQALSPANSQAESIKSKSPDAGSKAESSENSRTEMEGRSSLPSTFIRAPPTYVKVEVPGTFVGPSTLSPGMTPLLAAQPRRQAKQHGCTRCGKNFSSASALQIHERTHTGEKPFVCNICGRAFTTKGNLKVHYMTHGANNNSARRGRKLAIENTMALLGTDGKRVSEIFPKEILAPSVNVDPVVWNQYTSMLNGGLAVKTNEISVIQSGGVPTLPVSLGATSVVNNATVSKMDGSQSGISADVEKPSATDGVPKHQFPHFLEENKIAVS
Method: universal PBM
Form: double-stranded DNA, one strand shown
Matrix: in vitro
Concentration: 600 nM
Setting: 8-mer, flanks averaged, mean of replicates
Direction: higher = stronger binding
Sequence | E-score
ATCTGACA | 0.0431
ACGAGCTC | -0.233
ACTCTCTG | -0.0191
GAAGCATA | 0.206
CCAAGACG | -0.121
CACGGGGC | -0.33
ACCCCTAG | -0.198
GCAGGTGA | -0.231

Mixed results
Structure (SMILES) | target | read-out | action | concentration | relative to | endpoint | result
COc1ccc(OC)c2c(=S)c3ccccc3[nH]c12 | AKT3 (Homo sapiens, UniProt Q9Y243) | enzyme activity | inhibitor | 0.5 µM | control | remaining activity | 92%
C[C@@H](NC(=O)Nc1cc2[nH]ncc2c(CO)n1)c1ccccc1 | HTR6 (Homo sapiens, UniProt P50406) | cell-free assay |  | 10 µM |  | inhibition | 8.67%

For quick reference, copied from above (series 1):
Sequence | bound/input enrichment
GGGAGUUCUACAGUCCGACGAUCAGUAACUAACCACCAAGAACCUCUUCUGUAACCCAGAGUGAGAAAGCUGUAGGCAUAUUCUAGCAGGUAUCAAUGUCUCUGGCAUCCUUUAGAGCCUUACUCUGGUUAACUGACUCUCAGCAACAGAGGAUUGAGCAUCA | 0.331 ratio
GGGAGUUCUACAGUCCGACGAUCGAGUGGCCCCUGCUAGAUUCUUCCCAGAGAAAACUGUACAAAGAUGUAAUGCUGGAGAAUUAUAGCAAUCUAAGUUCACUGGGUUAUCAGGUUGGCAAACCCCGCCUCAUCUCACACCUACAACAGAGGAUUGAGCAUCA | 0.189 ratio
